Assay results from different studies.
Numbered parts are unrelated; each lists some results of a single study.

Set 1 — method: RNA Bind-n-Seq; molecule type: RNA; sample: in vitro; concentration: 1 µM; setting: whole 134-nt RNA, ends assumed; together with: 150 mM KCl; relative to: input library; direction: higher = stronger binding
Target: Ras GTPase-activating protein-binding protein 1, C-terminal RGG region (G3BP1, Homo sapiens, UniProt Q13283)
Chain of UniProt Q13283 (whole entry, looked up): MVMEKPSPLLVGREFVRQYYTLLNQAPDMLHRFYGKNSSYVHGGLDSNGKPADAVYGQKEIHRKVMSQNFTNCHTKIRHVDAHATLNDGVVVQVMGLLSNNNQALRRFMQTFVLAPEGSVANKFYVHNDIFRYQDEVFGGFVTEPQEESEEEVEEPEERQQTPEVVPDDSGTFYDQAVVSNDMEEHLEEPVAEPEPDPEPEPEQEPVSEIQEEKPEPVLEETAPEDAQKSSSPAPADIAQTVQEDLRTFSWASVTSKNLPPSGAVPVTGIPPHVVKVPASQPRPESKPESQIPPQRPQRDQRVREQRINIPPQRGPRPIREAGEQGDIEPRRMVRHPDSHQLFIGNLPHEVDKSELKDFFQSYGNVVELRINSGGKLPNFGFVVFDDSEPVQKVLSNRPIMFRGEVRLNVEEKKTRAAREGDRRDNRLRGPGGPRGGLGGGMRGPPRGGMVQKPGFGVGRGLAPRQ
Constant ends, left off below: GGGAGUUCUACAGUCCGACGAUC … UGGAAUUCUCGGGUGUCAAGG
Strand	log2 enrichment
UUUUUUGUAGUAGGGAGAUCCUUGAUCAUCAGGAUGGUAAUGUAGAAGAUGAUGGGCUUACAGGACUCCUAAGGCUUGCAACAAGUGUUG	0.0285
CUGUGCUACACAUCGUAUGUACCGAAUCGGUUUUUUUGGGUUUUUUUGGGGUUUUUUUGGGGAAAGUAUUAUGUUACGCCGUUCGGAUCU	-1
CAAGUCCUGUGCUACACAUCGUAUGUACCGAAUCGGGAAAAAGGGAGGGUUUGGGAAAGUAUUAUGUUACGCCGUUCGGAUCUGCACUUC	1.97
UCUCAGCAGGCGCAUCUACACUAGUGACCUGAGGAGAGAAACCCUAACCCCACAAUGGCUGCAUCUUCUCUGAAGACGAGACUGAUGCUC	-0.814
GUCCUGUGCUACACAUCGUAUGUACCGAAUCAAAGUGUGUGUGUGUGUGUGUGUGUAAAAAAGUAUUAUGUUACGCCGUUCGGAUCUGCA	1.08
CAAGUCCUGUGCUACACAUCGUAUGUACCGAAUCGGGUUUGGGUGGGAAAAAGGGAAAGUAUUAUGUUACGCCGUUCGGAUCUGCACUUC	1.9
AAGUCCUGUGCUACACAUCGUAUGUACCGAAUCGGUUUUUUUGGUUUGGUUUUUGGAAAGUAUUAUGUUACGCCGUUCGGAUCUGCACUU	-1.89
UCCCAGCCGAGGACGUCGGAUGUCAUCGUCCUUGCUGCUUUGCCACCCCAUUCCCGUCAAUAAAGUGGUUUGAACCCAACCCUGGUGUCG	-0.752
UAACUUUAGAGGAGGAUCUGAUGGAUAUGGCAGUGGACGUGGAUUUGGGGAUGGCUAUAAUGGGUAUGGAAGAGGACCUGGAGGUGGCAA	-0.516
UGGCCCUGGUGGCAUGCGGGGAGGAAGAGGUGGCCUCAUGGAUCGUGGUGGUCCCGGUGGAAUGUUUAGAGGUGGCCGUGGUGGAGACAG	2.01

Set 2 — method: competition protein-binding microarray; molecule type: double-stranded DNA, one strand shown; sample: in vitro; concentration: 2 µM; together with: Cbf1 competitor, 0.05 µM; direction: higher = stronger binding; constant ends, left off below: … GTCTTGATTCGCTTGACGCTGCTG
Target: Phosphate system positive regulatory protein PHO4, full length, GST-tagged (PHO4, Saccharomyces cerevisiae, UniProt P07270, residues 1-312)
Setting: whole 60-bp probe, lowest competitor level
Residues (chain): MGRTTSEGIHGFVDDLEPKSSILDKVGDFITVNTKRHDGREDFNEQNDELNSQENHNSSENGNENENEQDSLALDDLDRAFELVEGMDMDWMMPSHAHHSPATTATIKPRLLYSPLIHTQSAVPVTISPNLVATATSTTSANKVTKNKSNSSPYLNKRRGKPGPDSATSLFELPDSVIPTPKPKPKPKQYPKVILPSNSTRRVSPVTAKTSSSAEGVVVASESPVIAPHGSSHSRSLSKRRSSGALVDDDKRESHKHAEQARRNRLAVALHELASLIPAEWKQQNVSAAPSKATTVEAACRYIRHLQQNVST
Strand	fluorescence intensity [a.u.]
TGCGCAACAACTTGTAAGGTGGGTGTATGTCTAGAA	5290
TGCAGGTAAGTGACTCACATGCTTTGAAAAGTTCCT	8210
AGAAGCTAAGACACTGTTCTCTTGACTAAATGAAAG	3160
CGTCCTAGCGATTGAGGTGTGGGTGCCATGAGGAAG	7260
CTTGTATATATAAATGTCGTGATGGTTCTATGCCAA	4090
AAATTACTAAGTTGTCACTACACTTACCCCGTATGA	4060
CTTCTGTAAATTTGTCACCGAACTTGACGCGCCCCG	3040
CTGTCATCATGTACTCATGTGCCCGCGCGCGCGCTT	9320
GAACAATATCCGAGTCACGTGAAATTTAGATAAGCA	11000
AAAGCGGTAATTTGACGAGTGGGTGCAGATATCTAT	4090
CTGTGTCCTGTGGTAGACCCACTTGTTTTACCGCAG	4820
CGGGGTTAAGTTTGTCACACTACTTGCTTGCAGCAG	3950
CATAACCTTGCCTGCCAAGTGTGGCAAGCAATGACG	5270
AAACTGGGAGAAAGTGACGTGATGGAGGAAATTATG	4470
CGGGGTTAAGTTTGATTAGTGGGTGGCTTGCAGCAG	4600
CTTCTGTAAATTTGTGAAGTGGGTGGACGCGCCCCG	4440
CGTCCTAGTGATTTTCACGTGGGGTCCATGAGGAAG	15800
CAGGGTATAGACCGCTGAGGCAAGTGCCGTTAATGG	3310
GACATCAAATGCAAGCACATGAAGCTGGAACTTCGC	6330
TTTTGAGGGGAATTGATTACATTTCCTTTTTTTTTC	2690
GCGTTTGCATAATCGCACGTCTTTCCATCGAATTAA	7490
GGAAAGCCTATTTCTCACGTTTTCCGGCACTTAATG	9210
CTTCTTCGTTACAGTGACGTGAGATGTTCAGCAGTC	4180

Set 3 — method: RNA Bind-n-Seq; molecule type: RNA; sample: in vitro; concentration: 365 nM; relative to: no-protein control; direction: higher = stronger binding
Target: RNA binding protein fox-1 homolog 2, RRM domain, GST-SBP tag (RBFOX2, Homo sapiens, UniProt O43251-10, residues 100-194)
Setting: natural RNA segment, single round, ends assumed
Constant ends, left off below: GGGAGUUCUACAGUCCGACGAUC … UGGAAUUCUCGGGUGCCAA
Target sequence (chain): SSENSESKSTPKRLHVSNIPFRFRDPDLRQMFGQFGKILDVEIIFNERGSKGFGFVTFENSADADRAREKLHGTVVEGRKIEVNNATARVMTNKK
Strand	RBNS enrichment (R)
CCUCAAAAACAAAACAAAAAAAAUGUUUUUACGCAUUUUAUCAAAAUUAGCACAUCUGUGGCUGAGGAGAAAUCCACCUGAAAAUGUGGGAGACCUUGACAGAGUGGUCA	0.703
UGCUGGUUGUAUUAACAGAGCACAUUUGUCGGGUGAGUCGUGUAUACAAACUUUUUUUUUUUAUCCUGUUUGUUUUAUCUGGGGGUUCGUUCAUUAAACUGACAGAUAUU	0.665
GGGAUGAAGGUCCAACAGCCUGUGCCUCUCCACUGCUGGCCCUGGAGCCGGCAGCAGUGAGGCAUUCAUUGUCUGUGUUGCGGUGUAUUCCCAGCUUCAGUGCUCUUUUC	0.262
GUUACCCUCUAUUCUUUCUAGUGCUUUCAGUCAGUGGCAACACAUAGGCCCCUUGGACCGUGGGGAUGGCGGCCCUGAGAUUCUGUCAGUGGGACCACCCUGGGCCUCCU	0.673
CGCCCUCAUGGCCCUAGACUAUGGGGUUGAAAACUCAUAGCAGUCAGGUUUGUUUACCAUCUCUCCGAGCCUCCACCACACUCCCUGACCCACCCAACGUCUCCAGUUCU	0.242
AUUACUUGAAGCACUACAGGAGGAAUGCACCACGGCAGCUCUCCGCCAAUUUCUCUCAGAUUUCCACAGAGACUGUUUGAAUGUUUUCAAAACCAAGUAUCACACUUUAA	0.366
GCAUUGAAUACUCCAUCCCCUUCCCGCCCAGUGAAUGGAAUGAGAAAAGCCUUCUUCCUUUGCUUCAGGCAGCUGUCCCCUUCUCUUCCUUGGUGAUCCUGAGUGGGUCA	0.465
CUUUGAGUCUUUGAAAGCUUGAUGGCCUCUGCACCCUACUGAAAACCCCCUAAGCCAGCAGGAGCAGGGUAUGCAGAGGCUUUGCCUCUGCUGGCUUAGGGUGAGAAGUA	0.761
UCUCUCCUAGCCGCUGCUUUACAAACCCAGAGGAUGAGAGCCCAAGGUCGAGACUGGAGAAGCACACUUCCUUCUUGGGCAGCUUCCCACCAUGGCACAGGUGCUAUGGC	0.307
CCUCCCCUCCCCCGAGGGCAGACCCAGCCAGCUGCUAAGCUCUGCAGCUCCCCAGUGGACAGUGUCAUUGUGCCCAGAGUGCUGCAAGGUGAGGCCUGCUGUGCUGCCCG	0.282
GGUGCUGCCUCUACCUGACACUCCCUUGGGCUCCCUGUAACCUCUUCAGAGGCCCUCGCUGCCAGCUCUGUAUCAGGACCCAGAGGAAGGGGCCAGAGGCUCGUUGACUG	0.384
GUUUGAGUUUUUUGUGUGCUGUAUUUCUUUCUGUUUUUUAAUACCUGGUUUUGUACAUAUCUAACUCUGUUCUCUUUUGGUUGUUCAGAAACUGGAUUUUUUUUUUCUUA	1.08

Set 4 — method: protein-binding microarray; molecule type: double-stranded DNA, one strand shown; sample: in vitro; concentration: not given; direction: higher = stronger binding
Target: Hepatocyte nuclear factor 3-beta, forkhead domain (FOXA2, Homo sapiens, UniProt Q9Y261, residues 142-269)
Setting: k-mer, scored over probes, only values ≥0.25
Target sequence (chain): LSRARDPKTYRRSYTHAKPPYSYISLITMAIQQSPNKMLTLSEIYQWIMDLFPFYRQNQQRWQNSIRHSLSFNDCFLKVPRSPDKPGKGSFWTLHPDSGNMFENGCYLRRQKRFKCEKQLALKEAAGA
Strand	E-score
CATGGTAA	0.255
ATAAAATA	0.332
CTATTAAC	0.293
ATGTGTTG	0.305
ACGTATAC	0.267
ATCATGTG	0.279
GCTATTTA	0.256
TACTAGTA	0.296
TAATCATA	0.354
AAGTTTGT	0.252
ATGGATAA	0.254
ATCAATAG	0.281
AATATGTA	0.345
ACTAAATA	0.354
GTATAACA	0.379
ATATTCCG	0.253
ACTATATG	0.309
GTTATATA	0.352
ACTTATGA	0.299
CACATTAC	0.316
ACTAGCCT	0.255
ATATATTA	0.325
CGCAAATA	0.282
TACGGCAA	0.281
CGTAAATA	0.299

Excerpt of the above (set 3):
Strand	RBNS enrichment (R)
UCUCUCCUAGCCGCUGCUUUACAAACCCAGAGGAUGAGAGCCCAAGGUCGAGACUGGAGAAGCACACUUCCUUCUUGGGCAGCUUCCCACCAUGGCACAGGUGCUAUGGC	0.307
CCUCCCCUCCCCCGAGGGCAGACCCAGCCAGCUGCUAAGCUCUGCAGCUCCCCAGUGGACAGUGUCAUUGUGCCCAGAGUGCUGCAAGGUGAGGCCUGCUGUGCUGCCCG	0.282
GGUGCUGCCUCUACCUGACACUCCCUUGGGCUCCCUGUAACCUCUUCAGAGGCCCUCGCUGCCAGCUCUGUAUCAGGACCCAGAGGAAGGGGCCAGAGGCUCGUUGACUG	0.384
GUUUGAGUUUUUUGUGUGCUGUAUUUCUUUCUGUUUUUUAAUACCUGGUUUUGUACAUAUCUAACUCUGUUCUCUUUUGGUUGUUCAGAAACUGGAUUUUUUUUUUCUUA	1.08
